Published values pooled from the literature.
Each line is one published result; not all experiments were run side by side.
RET: Proto-oncogene tyrosine-protein kinase receptor Ret (RET, Homo sapiens, UniProt P07949)
UniProt P07949, sequence (whole entry, looked up): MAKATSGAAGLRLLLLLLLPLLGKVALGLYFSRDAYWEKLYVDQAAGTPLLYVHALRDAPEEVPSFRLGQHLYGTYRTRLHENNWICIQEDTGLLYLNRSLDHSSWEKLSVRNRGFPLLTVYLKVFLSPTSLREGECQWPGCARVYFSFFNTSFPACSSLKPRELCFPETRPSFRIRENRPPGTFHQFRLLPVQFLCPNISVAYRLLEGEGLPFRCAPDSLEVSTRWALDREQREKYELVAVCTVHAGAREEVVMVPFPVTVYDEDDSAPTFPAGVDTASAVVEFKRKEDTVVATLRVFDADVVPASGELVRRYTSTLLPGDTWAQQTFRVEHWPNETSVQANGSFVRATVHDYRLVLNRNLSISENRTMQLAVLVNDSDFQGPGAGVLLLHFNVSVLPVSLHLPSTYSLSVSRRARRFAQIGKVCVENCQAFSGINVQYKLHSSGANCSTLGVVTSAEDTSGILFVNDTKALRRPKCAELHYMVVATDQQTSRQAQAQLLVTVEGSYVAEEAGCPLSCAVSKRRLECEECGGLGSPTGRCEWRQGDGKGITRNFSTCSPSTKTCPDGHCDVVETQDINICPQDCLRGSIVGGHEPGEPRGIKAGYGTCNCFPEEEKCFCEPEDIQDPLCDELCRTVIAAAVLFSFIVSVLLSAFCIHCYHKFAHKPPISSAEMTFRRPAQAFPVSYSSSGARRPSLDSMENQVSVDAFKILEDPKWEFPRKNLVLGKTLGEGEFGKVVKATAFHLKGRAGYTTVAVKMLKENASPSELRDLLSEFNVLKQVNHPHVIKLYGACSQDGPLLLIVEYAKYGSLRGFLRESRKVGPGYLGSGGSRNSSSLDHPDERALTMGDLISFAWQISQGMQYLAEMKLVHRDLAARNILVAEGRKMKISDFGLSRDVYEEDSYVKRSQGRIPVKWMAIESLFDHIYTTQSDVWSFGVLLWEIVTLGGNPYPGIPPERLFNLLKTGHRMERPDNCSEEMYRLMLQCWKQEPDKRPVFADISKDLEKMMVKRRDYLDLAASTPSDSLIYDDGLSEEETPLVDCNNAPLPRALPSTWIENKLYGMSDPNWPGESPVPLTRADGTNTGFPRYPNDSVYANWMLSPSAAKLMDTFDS
MPO: Myeloperoxidase (MPO, Homo sapiens, UniProt P05164)
UniProt P05164, sequence (whole entry, looked up): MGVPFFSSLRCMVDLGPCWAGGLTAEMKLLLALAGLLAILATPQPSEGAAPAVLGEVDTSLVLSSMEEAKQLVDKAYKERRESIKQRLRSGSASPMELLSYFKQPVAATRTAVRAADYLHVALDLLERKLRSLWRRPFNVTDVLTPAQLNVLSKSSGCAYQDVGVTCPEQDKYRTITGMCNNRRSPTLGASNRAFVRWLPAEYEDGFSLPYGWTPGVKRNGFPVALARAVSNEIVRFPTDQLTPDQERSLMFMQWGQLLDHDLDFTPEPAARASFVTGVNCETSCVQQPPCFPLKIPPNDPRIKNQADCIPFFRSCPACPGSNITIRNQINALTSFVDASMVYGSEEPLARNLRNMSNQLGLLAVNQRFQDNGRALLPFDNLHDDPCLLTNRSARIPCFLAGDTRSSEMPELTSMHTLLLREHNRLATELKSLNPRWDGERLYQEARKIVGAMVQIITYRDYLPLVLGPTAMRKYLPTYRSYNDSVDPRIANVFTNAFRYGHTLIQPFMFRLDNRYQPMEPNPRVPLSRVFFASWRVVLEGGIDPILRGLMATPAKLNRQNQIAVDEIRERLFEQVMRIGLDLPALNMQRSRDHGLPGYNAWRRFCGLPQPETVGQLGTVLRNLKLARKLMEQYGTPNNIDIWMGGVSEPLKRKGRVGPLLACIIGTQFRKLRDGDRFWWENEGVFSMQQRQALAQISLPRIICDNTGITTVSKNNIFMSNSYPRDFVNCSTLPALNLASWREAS
SLC2A1: Solute carrier family 2, facilitated glucose transporter member 1 (SLC2A1, Homo sapiens, UniProt P11166)
UniProt P11166, sequence (whole entry, looked up): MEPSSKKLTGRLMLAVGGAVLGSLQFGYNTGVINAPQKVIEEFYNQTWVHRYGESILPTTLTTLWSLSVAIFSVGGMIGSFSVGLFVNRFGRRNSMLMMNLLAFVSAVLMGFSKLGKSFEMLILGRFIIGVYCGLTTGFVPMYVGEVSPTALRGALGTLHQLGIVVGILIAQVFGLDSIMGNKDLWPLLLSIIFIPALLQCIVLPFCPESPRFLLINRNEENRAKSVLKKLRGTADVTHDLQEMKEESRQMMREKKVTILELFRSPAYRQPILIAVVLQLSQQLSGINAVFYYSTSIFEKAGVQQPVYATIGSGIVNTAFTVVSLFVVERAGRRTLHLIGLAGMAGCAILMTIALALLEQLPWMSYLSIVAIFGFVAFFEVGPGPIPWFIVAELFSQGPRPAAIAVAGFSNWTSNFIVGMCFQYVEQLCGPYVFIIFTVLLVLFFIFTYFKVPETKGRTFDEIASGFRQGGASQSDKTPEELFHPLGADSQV
AAK1: AP2-associated protein kinase 1 (AAK1, Homo sapiens, UniProt Q2M2I8)
UniProt Q2M2I8, sequence (whole entry, looked up): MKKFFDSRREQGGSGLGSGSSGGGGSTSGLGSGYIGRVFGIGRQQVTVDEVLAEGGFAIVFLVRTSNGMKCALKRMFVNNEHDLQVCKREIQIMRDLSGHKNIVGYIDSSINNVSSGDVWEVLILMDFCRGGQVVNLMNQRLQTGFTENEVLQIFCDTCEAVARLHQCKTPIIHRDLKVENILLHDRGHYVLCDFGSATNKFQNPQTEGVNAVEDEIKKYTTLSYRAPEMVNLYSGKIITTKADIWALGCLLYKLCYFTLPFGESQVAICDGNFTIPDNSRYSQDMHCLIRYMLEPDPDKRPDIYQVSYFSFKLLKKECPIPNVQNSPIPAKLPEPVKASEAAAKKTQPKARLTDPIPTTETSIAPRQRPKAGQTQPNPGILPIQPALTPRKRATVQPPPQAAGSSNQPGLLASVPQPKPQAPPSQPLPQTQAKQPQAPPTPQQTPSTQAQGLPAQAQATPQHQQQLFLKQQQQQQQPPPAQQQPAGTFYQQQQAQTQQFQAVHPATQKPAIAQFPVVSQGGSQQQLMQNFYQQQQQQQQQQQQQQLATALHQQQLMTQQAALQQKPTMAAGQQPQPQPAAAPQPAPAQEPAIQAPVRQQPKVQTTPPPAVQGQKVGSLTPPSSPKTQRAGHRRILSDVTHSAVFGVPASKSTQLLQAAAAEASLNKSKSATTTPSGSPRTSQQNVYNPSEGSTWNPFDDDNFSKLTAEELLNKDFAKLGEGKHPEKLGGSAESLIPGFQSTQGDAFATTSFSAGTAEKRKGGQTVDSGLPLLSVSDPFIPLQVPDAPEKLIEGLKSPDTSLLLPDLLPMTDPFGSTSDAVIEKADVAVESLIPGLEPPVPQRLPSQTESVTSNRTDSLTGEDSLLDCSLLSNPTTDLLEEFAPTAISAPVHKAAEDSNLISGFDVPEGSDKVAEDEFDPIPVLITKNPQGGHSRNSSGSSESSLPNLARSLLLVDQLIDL
UniProt O14744, sequence (whole entry, looked up): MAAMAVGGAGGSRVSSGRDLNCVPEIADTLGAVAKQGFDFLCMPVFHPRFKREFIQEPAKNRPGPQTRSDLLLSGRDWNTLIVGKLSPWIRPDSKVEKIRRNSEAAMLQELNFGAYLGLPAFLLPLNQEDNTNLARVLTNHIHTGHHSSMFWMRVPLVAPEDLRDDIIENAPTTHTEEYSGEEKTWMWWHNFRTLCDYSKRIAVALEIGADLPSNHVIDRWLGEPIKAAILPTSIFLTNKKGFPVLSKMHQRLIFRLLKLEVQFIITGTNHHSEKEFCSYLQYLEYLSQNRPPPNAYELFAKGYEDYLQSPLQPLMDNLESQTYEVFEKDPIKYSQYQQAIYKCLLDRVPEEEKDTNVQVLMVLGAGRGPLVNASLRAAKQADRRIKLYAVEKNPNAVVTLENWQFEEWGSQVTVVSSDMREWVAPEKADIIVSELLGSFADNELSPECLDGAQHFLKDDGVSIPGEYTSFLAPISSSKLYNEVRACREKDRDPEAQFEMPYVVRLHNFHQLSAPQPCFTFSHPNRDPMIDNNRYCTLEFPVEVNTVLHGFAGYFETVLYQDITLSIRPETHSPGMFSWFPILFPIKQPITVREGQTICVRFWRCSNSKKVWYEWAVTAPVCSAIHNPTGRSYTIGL
UniProt P07202, sequence (whole entry, looked up): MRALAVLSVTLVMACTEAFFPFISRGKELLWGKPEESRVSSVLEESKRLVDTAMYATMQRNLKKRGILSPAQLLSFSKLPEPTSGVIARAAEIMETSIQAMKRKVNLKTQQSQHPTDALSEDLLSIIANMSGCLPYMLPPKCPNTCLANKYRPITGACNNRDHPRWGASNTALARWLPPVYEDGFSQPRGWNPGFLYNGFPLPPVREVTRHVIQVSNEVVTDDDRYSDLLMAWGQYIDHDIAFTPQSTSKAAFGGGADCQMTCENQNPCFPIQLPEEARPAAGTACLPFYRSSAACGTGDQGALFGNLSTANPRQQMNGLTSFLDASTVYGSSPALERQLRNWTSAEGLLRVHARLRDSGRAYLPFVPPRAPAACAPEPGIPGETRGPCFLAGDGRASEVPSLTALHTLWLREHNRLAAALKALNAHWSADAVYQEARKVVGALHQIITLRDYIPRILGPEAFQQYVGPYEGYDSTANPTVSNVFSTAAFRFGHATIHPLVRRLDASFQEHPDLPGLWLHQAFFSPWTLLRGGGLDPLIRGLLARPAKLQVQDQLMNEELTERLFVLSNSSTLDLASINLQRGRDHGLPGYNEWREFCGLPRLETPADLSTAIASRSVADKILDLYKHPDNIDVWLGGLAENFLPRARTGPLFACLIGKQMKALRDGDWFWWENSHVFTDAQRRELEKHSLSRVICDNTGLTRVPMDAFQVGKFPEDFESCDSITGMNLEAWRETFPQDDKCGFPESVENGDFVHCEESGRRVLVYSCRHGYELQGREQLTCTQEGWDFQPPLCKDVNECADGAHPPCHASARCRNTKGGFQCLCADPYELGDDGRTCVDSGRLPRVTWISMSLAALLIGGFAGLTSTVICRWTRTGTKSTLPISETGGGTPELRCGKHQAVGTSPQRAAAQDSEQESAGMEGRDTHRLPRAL

| SMILES | target | test | test system | setting | quantity | result |
| --- | --- | --- | --- | --- | --- | --- |
| CCn1cc(C(=O)Nc2cccc(O)c2)c(=O)c2cc(F)c(N3CCN(C(C)=O)CC3)cc21 | RET | enzyme activity, inhibitor, radiometric |  | 10 µM | remaining activity | 25.3% |
| CC(C)OCCn1c(=S)[nH]c(=O)c2[nH]ccc21 | MPO | enzyme activity, inhibitor |  | 5 µM | remaining activity | 8.55% |
| CCCCC(=O)Nc1ccc(-c2ccc3ncn(CCC)c(=O)c3c2)cn1 | TGF-beta receptor type-1 (TGFBR1, Homo sapiens, UniProt P36897) | binding, competition with immobilised ligand |  | 0.5 µM | remaining binding | 77% |
| COc1ccc(-n2nc(C(=O)Nc3ccc4c(c3)OCO4)c(=O)cc2OC)cc1OC | RET | enzyme activity, inhibitor, radiometric |  | 10 µM | remaining activity | 78.9% |
| Cc1cc([C@@H](C)Nc2ccccc2C(=O)O)c2nc(N3CCC(F)(F)CC3)c(C#N)c(=O)n2c1 | Phosphatidylinositol 4-kinase beta (PI4KB, Homo sapiens, UniProt Q9UBF8) | enzyme activity, inhibitor, ADP detection |  | 10 µM | remaining activity | 98% |
| CNc1ncc2c(/C=C/C(=O)N3CCC(OC)CC3)nn(Cc3cccc(C(F)(F)F)c3)c2n1 | Serine/threonine-protein kinase Nek3 (NEK3, Homo sapiens, UniProt P51956) | enzyme activity, inhibitor, radiometric |  | 1 µM | remaining activity | 104% |
| CCCOc1ccc(OC)c(F)c1C(=O)c1ccc(C(=O)N[C@@H]2CNC[C@H]2NC(=O)c2ccc3[nH]ncc3c2)cc1 | 5'-AMP-activated protein kinase catalytic subunit alpha-2 (PRKAA2, Homo sapiens, UniProt P54646) | enzyme activity, inhibitor |  | 10 µM | remaining activity | 1% |
| COc1cccc(-c2ccc(/C(C)=N/O)c(O)c2Cl)c1 | SLC2A1 | transporter uptake, inhibitor, radiometric | NCI-H1299 | 30 µM | remaining activity | 67% |
| COc1cc(NC(=O)Nc2ccc(C)c(F)c2)cc2sc(NC(=O)c3ccccc3)nc12 | RET | enzyme activity, inhibitor, radiometric |  | 10 µM | remaining activity | 15.7% |
| CC[C@H](C)[C@H](NC(=O)[C@H](CCC(N)=O)NC(=O)[C@@H](NC(=O)[C@H](CCSC)NC(=O)[C@H](CCCCN)NC(=O)[C@H](CO)NC(=O)[C@@H](NC(=O)[C@H](CCSC)NC(=O)[C@H](CC(C)C)NC(=O)[C@H](CC(N)=O)NC(=O)[C@@H](NC(=O)[C@@H](NC(=O)[C@H](CO)NC(=O)[C@H](CC(C)C)NC(=O)[C@H](C)NC(=O)[C@H](CCCNC(=N)N)NC(=O)[C@H](CCC(=O)O)NC(=O)[C@H](Cc1ccc(O)cc1)NC(=O)[C@H](Cc1ccccc1)NC(=O)[C@H](C)NC(=O)[C@H](CC(N)=O)NC(=O)[C@@H](N)CCCCN)[C@@H](C)CC)[C@@H](C)CC)[C@@H](C)O)C(C)C)C(=O)N[C@@H](CC(N)=O)C(=O)N[C@H](C(=O)O)C(C)C | Cyclin-dependent kinase 5, with p25 (CDK5, Homo sapiens, UniProt Q00535) | enzyme activity, inhibitor, radiometric |  | 10 µM, 20 min | remaining activity | 92% |
| N=C(N)c1ccc(-c2ccc(-c3ccc(C(=N)N)cc3)o2)cc1 | Protein arginine N-methyltransferase 5 (PRMT5, Homo sapiens, UniProt O14744) | enzyme activity, inhibitor, radiometric |  | 20 µM | remaining activity | 89.3% |
| NC/C(=C\F)COc1cccc(Cn2c(=S)[nH]c(=O)c3[nH]cnc32)c1 | Thyroid peroxidase (Homo sapiens, UniProt P07202) | enzyme activity, inhibitor |  | 1.875 µM | remaining activity | 68.1% |
| C/C(=N\O)c1ccc(-c2cccc(C#N)c2)c(Cl)c1O | SLC2A1 | transporter uptake, inhibitor, radiometric | NCI-H1299 | 30 µM | remaining activity | 67% |
| COc1ccc(NC(=O)Nc2ccccc2-c2nc(-c3ccoc3)n[nH]2)cc1 | RET | enzyme activity, inhibitor, radiometric |  | 0.1 µM | remaining activity | 103% |
| O=C(NCCCNc1ccnc(Nc2cccc(NC(=O)N3CCCC3)c2)n1)C1CCC1 | AAK1 | enzyme activity, inhibitor, radiometric |  | 1 µM | remaining activity | 33% |
| NC1=Nc2nc3ccccc3n2C(c2c[nH]nc2-c2cccc(O)c2)N1 (centres unmarked) | RET | enzyme activity, inhibitor, radiometric |  | 0.1 µM | remaining activity | 117% |
| COc1ccc(Cl)cc1-c1cc(=O)[nH]c(=S)n1CC(N)=O | MPO | enzyme activity, inhibitor |  | 0.3125 µM | remaining activity | 97.1% |
| COc1cccc(NC(=O)Nc2c(-c3ccc(Cl)cc3)nn(-c3ccc(F)cc3)c2N)c1 | RET | enzyme activity, inhibitor, radiometric |  | 10 µM | remaining activity | 96.3% |
| C/C(=N\O)c1ccc(-c2ccc(C#N)cc2)c(Cl)c1O | SLC2A1 | transporter uptake, inhibitor, radiometric | NCI-H1299 | 30 µM | remaining activity | 78% |
| CC[C@H](C)[C@H](NC(=O)[C@H](CCC(N)=O)NC(=O)[C@H](CC(C)C)NC(=O)[C@H](CCSC)NC(=O)[C@H](CCCCN)NC(=O)[C@H](CO)NC(=O)[C@H](CO)NC(=O)[C@H](CCSC)NC(=O)[C@H](CC(C)C)NC(=O)[C@H](CC(N)=O)NC(=O)[C@@H](NC(=O)[C@@H](NC(=O)[C@H](CO)NC(=O)[C@H](CC(C)C)NC(=O)[C@H](CS)NC(=O)[C@H](CCCNC(=N)N)NC(=O)[C@H](CC(=O)O)NC(=O)[C@H](Cc1c[nH]c2ccccc12)NC(=O)[C@H](Cc1ccccc1)NC(=O)[C@H](C)NC(=O)[C@H](CCC(=O)O)NC(=O)[C@@H](N)CCCCN)C(C)C)[C@@H](C)CC)C(=O)N[C@@H](CC(N)=O)C(=O)N[C@@H](C)C(=O)O | Mitogen-activated protein kinase 3 (MAPK3, Homo sapiens, UniProt P27361) | enzyme activity, inhibitor, radiometric |  | 500 µM, 20 min | remaining activity | 75% |
| O=C(Cn1c(=O)n(CC2CCCO2)c(=O)c2ccc(C(=O)NCCc3ccccc3)cc21)Nc1ccc(F)c(Cl)c1 (centres unmarked) | RET | enzyme activity, inhibitor, radiometric |  | 10 µM | remaining activity | 85.3% |
| NS(=O)(=O)c1ccc(CNc2ccnc(Nc3cccc(CN4CCOCC4)c3)n2)cc1 | AAK1 | enzyme activity, inhibitor, radiometric |  | 1 µM | remaining activity | 61% |
| COc1cc(-c2cncc3c2CN(C)Cc2cc(N4CCNCC4)ccc2-3)cc(OC)c1OC | Phosphatidylinositol 4-phosphate 5-kinase type-1 alpha (PIP5K1A, Homo sapiens, UniProt Q99755) | enzyme activity, inhibitor |  | 1 µM | remaining activity | 109% |

For quick reference, copied from above:
| SMILES | target | test | test system | setting | quantity | result |
| --- | --- | --- | --- | --- | --- | --- |
| NC1=Nc2nc3ccccc3n2C(c2c[nH]nc2-c2cccc(O)c2)N1 (centres unmarked) | RET | enzyme activity, inhibitor, radiometric |  | 0.1 µM | remaining activity | 117% |
| COc1cccc(NC(=O)Nc2c(-c3ccc(Cl)cc3)nn(-c3ccc(F)cc3)c2N)c1 | RET | enzyme activity, inhibitor, radiometric |  | 10 µM | remaining activity | 96.3% |
| C/C(=N\O)c1ccc(-c2ccc(C#N)cc2)c(Cl)c1O | SLC2A1 | transporter uptake, inhibitor, radiometric | NCI-H1299 | 30 µM | remaining activity | 78% |
